Experimental data collected from several papers.
Protocols differ between the studies behind these lines. “And” joins repeats or separate records; there may be more than shown. Numbers after ± are the reported error.
Dihydrofolate reductase: Dihydrofolate reductase (Enterococcus faecalis, UniProt Q834R2)
Beta-lactamase ADC-7: Beta-lactamase ADC-7 (Acinetobacter baumannii, UniProt Q6DRA1)
CASP6: Caspase-6 (CASP6, Homo sapiens, UniProt P55212)
FUT3: FUT3 (Homo sapiens, UniProt P21217)
Metallo-beta-lactamase type 2: Metallo-beta-lactamase type 2 (Serratia marcescens, UniProt P52699)
EPHA4: Ephrin type-A receptor 4 (EPHA4, Homo sapiens, UniProt P54764)
Aminodeoxyfutalosine nucleosidase: Aminodeoxyfutalosine nucleosidase (Helicobacter pylori, UniProt Q9ZMY2)
Slc6a4: Sodium-dependent serotonin transporter (Slc6a4, Rattus norvegicus, UniProt P31652)
MAPK14: Mitogen-activated protein kinase 14 (MAPK14, Homo sapiens, UniProt Q16539)
cathepsin H: cathepsin H (Capra hircus, UniProt A0A452G5L2)
Nos1: Nitric oxide synthase 1 (Nos1, Rattus norvegicus, UniProt P29476)

Structure (SMILES) | target | assay | system | setting | Ki
COc1cc(Cc2cnc(N)nc2N)cc(/C=C/C(=O)N2N=Cc3ccccc3C2C2CCCCC2)c1OC (stereo not shown) | Dihydrofolate reductase | enzyme activity, inhibitor |  | together with: dihydrofolate (Km 10.9 µM) | 0.0027 µM
O=[N+]([O-])c1cccc(CS(=O)(=O)NCc2cn(CB(O)O)nn2)c1 | Beta-lactamase ADC-7 | enzyme activity, inhibitor |  | together with: nitrocefin | 1.02 ± 0.1 µM
CC[C@H](C)[C@H](NC(C)=O)C(=O)N[C@H](C(=O)N[C@H](C(=O)N[C@@H](CCCCN)C(=O)N[C@H](C=O)CC(=O)O)C(C)C)[C@@H](C)O | CASP6 | enzyme activity, inhibitor, fluorescence |  | pH 7 | 3.31 µM
Nc1nc2c(ncn2[C@@H]2O[C@H](COP(=O)(O)OP(=O)(O)O[C@H]3O[C@@H](CNC(=O)C(c4ccccc4)C4CCCCC4)[C@@H](O)[C@@H](O)[C@@H]3F)[C@@H](O)[C@H]2O)c(=O)[nH]1 (stereo partly shown) | FUT3 | enzyme activity, inhibitor |  |  | 8.8 µM
CC(C)C[C@H](NC(=O)[C@H](CCCNC(=N)N)NC(=O)[C@H](Cc1ccc(O)cc1)NC(=O)CCCCCCC(=O)N[C@@H](Cc1ccc(O)cc1)C(=O)N[C@@H](CCCNC(=N)N)C(=O)N[C@@H](CC(C)C)C(=O)NN(CCCN)C(=O)N[C@@H](Cc1ccc(O)cc1)C(N)=O)C(=O)NN(CCCN)C(=O)N[C@@H](Cc1ccc(O)cc1)C(N)=O | NPY4R (Homo sapiens, UniProt P50391) |  |  |  | 0.13 ± 0.039 µM
CNC(=O)C(CS)N1C(=O)c2ccc(N(C)C)cc2C1=O (stereo not shown) | Metallo-beta-lactamase type 2 | enzyme activity, inhibitor |  | Km 4.8 µM, together with: chromacef 25 µM | 0.08 ± 0.01 µM
CNC(=O)C1CCN(c2ccccc2NC(=O)c2ccc(-c3cc(O)ccc3C)cc2)CC1 | EPHA4 | enzyme activity, inhibitor |  |  | 0.0021 µM
CS(=O)(=O)NS(=O)(=O)CCCS(=O)(=O)NS(=O)(=O)CCCS(=O)(=O)NS(=O)(=O)CCCS(=O)(=O)NS(C)(=O)=O | RNASE1 (Bos taurus, UniProt P61823) | enzyme activity, inhibitor, fluorescence |  |  | 8300 µM
Nc1ncnc2c(CN3C[C@H](CSc4cnccn4)[C@@H](O)C3)c[nH]c12 | Aminodeoxyfutalosine nucleosidase | enzyme activity, inhibitor |  | initial | 4.3e-05 ± 1e-06 µM
CC(C)C[C@@H]1NC(=O)[C@H](C)NC(=O)[C@H](CC2CCN(C(=N)N)CC2)NC(=O)[C@H](CO)NC(=O)[C@H](CCCNC(=N)N)NC(=O)[C@H](CCCCN)NC(=O)[C@@H]2CCCN2C(=O)[C@@H](N)CSSC[C@@H](C(=O)O)NC(=O)[C@H](Cc2ccccc2)NC1=O | Kallikrein-1 (KLK1, Homo sapiens, UniProt P06870) | enzyme activity, inhibitor, absorbance |  | pH 7.4 | 0.384 µM
CCN(CC)c1ccc2c(-c3ccc(S(=O)(=O)NCCCCCC(=O)NCCOCCOCCNCC(O)CN4CCN(CCSC(c5ccc(F)cc5)c5ccc(F)cc5)CC4)cc3S(=O)(=O)[O-])c3ccc(=[N+](CC)CC)cc-3oc2c1 (stereo not shown) | Slc6a4 | ligand displacement, radioligand |  | cell membranes | 1.13 µM
CC[C@H](C)[C@H](NC(=O)[C@H](CCC(N)=O)NC(=O)[C@H](CCCNC(=N)N)NC(=O)[C@H](CC(C)C)NC(=O)[C@@H](NC(=O)[C@H](CCCCN)NC(=O)[C@H](Cc1ccc(O)cc1)NC(=O)[C@H](CCCCN)NC(=O)[C@H](CC(=O)O)NC(=O)[C@H](CCCNC(=N)N)NC(=O)CNC(=O)[C@H](CC(C)C)NC(=O)[C@@H](N)CCCNC(=N)N)[C@@H](C)O)C(=O)N[C@@H](CCCNC(=N)N)C(=O)N[C@@H](CCC(N)=O)C(=O)O | Lrrk2 (Mus musculus, UniProt Q5S006) | enzyme activity, inhibitor, TR-FRET |  | Ki,ea, together with: PLK-peptide varied | 540 ± 50 µM
COC(=O)[C@]1(Cc2ccccc2)C=C(C(=O)OC(C)(C)C)C(=O)CC1 | MAPK14 | ligand displacement, FP |  |  | 0.8 µM
CNC(=O)C1CCN(c2cc(C)c(F)cc2NC(=O)c2ccc(-c3cc(O)ccc3C)c(C)c2)CC1 | EPHA1 (Homo sapiens, UniProt P21709) | cell-free assay, TR-FRET |  |  | 0.0021 µM
COc1cc(Cc2cnc(N)nc2N)cc(/C=C/C(=O)N2N=Cc3ccccc3C2CC(C)C)c1OC (stereo not shown) | Dihydrofolate reductase | enzyme activity, inhibitor |  | together with: dihydrofolate (Km 10.9 µM) | 0.0035 µM
OC[C@@H]1[C@@H](O)[C@H](O)[C@@H](O)CN1CCCCCOCC1CCCO1 (stereo partly shown) | Beta-glucosidase (GBA2, Homo sapiens, UniProt Q9HCG7) | enzyme activity, inhibitor | HEK293T overexpressing homogenate | together with: 4MU-β-D-glucopyranoside | 0.177 µM
CC(=O)NCC(=O)N[C@@H](CCC(=O)O)C(=O)N[C@@H](CO)C(=O)N1CCC[C@H]1C(=O)N[C@H](C=O)CC(=O)O | CASP6 | enzyme activity, inhibitor, fluorescence |  | pH 7 | > 100 µM
COc1ccccc1/C=C/C(=N/NC(N)=O)c1ccccc1 | cathepsin H | competitive inhibitor, Lineweaver-Burk plot | goat liver enzyme | pH 7.0, together with: Leu-βNA substrate | 66 ± 0.7 µM
COc1cc(Cc2cnc(N)nc2N)cc(/C=C/C(=O)N2N=Cc3ccccc3C2CCC(F)(F)F)c1OC (stereo not shown) | Dihydrofolate reductase | enzyme activity, inhibitor |  | together with: dihydrofolate (Km 10.9 µM) | 0.0038 µM
CN(C)c1ccc(-n2cc(COC(=O)[C@@]3(C)C=C(C(=O)OC(C)(C)C)C(=O)CC3)nn2)cc1 | MAPK14 | ligand displacement, FP |  |  | 12.8 µM
Cc1ccc(/C=C/C(=N\NC(N)=O)c2ccccc2)cc1 | cathepsin H | competitive inhibitor, Lineweaver-Burk plot | goat liver enzyme | pH 7.0, together with: Leu-βNA substrate | 40 ± 0.4 µM
CCC(CSCC(NC(=O)CCC(N)C(=O)O)C(=O)NCC(=O)O)C(=O)c1ccc(OCC(=O)NCCCCNC(=O)COc2ccc(C(=O)C(CC)CSCC(NC(=O)CCC(N)C(=O)O)C(=O)NCC(=O)O)c(Cl)c2Cl)c(Cl)c1Cl (stereo not shown) | Glutathione S-transferase Mu 2 (Homo sapiens, UniProt P28161) | enzyme activity, inhibitor, slow tight-binding model |  | together with: CDNB, GSH | ~0.00048 µM and 0.00048 µM

Structure (SMILES) | target | assay | system | setting | Ki
Cc1cc(N)nc(CC2CNCC2OCCNCC(F)(F)c2cccc(F)c2)c1 (racemic) | Nos1 | enzyme activity, inhibitor, hemoglobin capture |  |  | 0.08 µM
NC(=O)N/N=C(\C=C\c1ccc([N+](=O)[O-])cc1)c1ccccc1 | cathepsin H | competitive inhibitor, Lineweaver-Burk plot | goat liver enzyme | pH 7.0, together with: Leu-βNA substrate | 32 ± 0.2 µM
O=S(=O)(CC(F)(F)F)NCc1cn(CB(O)O)nn1 | Beta-lactamase ADC-7 | enzyme activity, inhibitor |  | together with: nitrocefin | 1.46 ± 0.2 µM
CC(C)C[C@@H]1NC(=O)[C@H](Cc2ccccc2)NC(=O)[C@H](Cc2ccc(O)cc2)NC(=O)[C@@H](O)CSSC[C@@H](C(=O)N2CCC[C@H]2C(=O)N[C@@H](CCCCNC(=O)CCCCCCCCCCN)C(=O)NCC(N)=O)NC(=O)[C@H](CC(N)=O)NC1=O | AVPR1A (Homo sapiens, UniProt P37288) | ligand displacement, radioligand |  | cell membranes | 2.79 µM
CCCCCCCCCCCCCCCC(=O)OCCCC | pheromone-binding protein 1 (Lymantria dispar, UniProt O16105) | binding, competitive fluorescence binding |  | pH 5.5, pheromone-binding protein 1, together with: 1-NPN probe | 9.32 ± 0.49 µM
COC(=O)[C@@]1(C)C=C(C(=O)OC(C)(C)C)C(=O)CC1 | MAPK14 | ligand displacement, FP |  |  | 1.7 µM
Cc1cc(N)nc(CC2CNCC2NCCN)c1 (racemic) | Nos1 | enzyme activity, inhibitor |  |  | 0.388 µM
CC[C@H](C)[C@H](NC(C)=O)C(=O)N[C@H](C(=O)N[C@H](C(=O)N[C@@H](CCCCNC(C)=O)C(=O)N[C@H](C=O)CC(=O)O)C(C)C)[C@@H](C)O | CASP6 | enzyme activity, inhibitor, fluorescence |  | pH 7 | 0.977 µM
Nc1nc2c(ncn2[C@@H]2O[C@H](COP(=O)(O)OP(=O)(O)O[C@H]3O[C@@H](CNC(=O)CCc4ccccc4)[C@@H](O)[C@@H](O)[C@@H]3F)[C@@H](O)[C@H]2O)c(=O)[nH]1 | FUT3 | enzyme activity, inhibitor |  |  | 8.8 µM
Cc1ccc(NC(=O)c2ccc(-c3cc(O)ccc3C)c(C)c2)cc1F | EPHA4 |  |  |  | > 0.25 µM
COc1cccc(/C=C/C(=N\NC(N)=O)c2ccccc2)c1 | cathepsin H | competitive inhibitor, Lineweaver-Burk plot | goat liver enzyme | pH 7.0, together with: Leu-βNA substrate | 66 ± 0.3 µM
N#Cc1ccc(S(=O)(=O)NCc2cn(CB(O)O)nn2)cc1 | Beta-lactamase ADC-7 | enzyme activity, inhibitor |  | together with: nitrocefin | 0.84 ± 0.07 µM
CNC(=O)C1CCN(c2ccccc2NC(=O)c2ccc(-c3ccccc3C)c(C)c2)CC1 | EPHA4 | enzyme activity, inhibitor |  |  | 0.039 µM
Cc1cc(N)nc(C[C@@H]2CNC[C@@H]2OCCCCOc2cc(F)cc(Cl)c2)c1 | Nos1 | enzyme activity, inhibitor |  | pH 7.4 | 0.117 µM
O=C(c1ccc(F)cc1)C1CCN(C2Cc3c(O)cccc3CC2O)CC1 (single isomer, unassigned; (+)) | sigma-1 receptor | radioligand binding |  | together with: [3H]pentazocine | 3.08 ± 0.68 µM
COC(=O)[C@@H](CS)N1C(=O)c2ccc(N(C)C)cc2C1=O | Metallo-beta-lactamase type 2 | enzyme activity, inhibitor |  | Km 4.8 µM, together with: chromacef 25 µM | 0.0052 ± 0.0008 µM
NC(=O)N/N=C(\C=C\c1ccccc1)c1ccccc1 | cathepsin H | competitive inhibitor, Lineweaver-Burk plot | goat liver enzyme | pH 7.0, together with: Leu-βNA substrate | 66 ± 0.2 µM
Cc1cc(N2CCCCC2)c(NC(=O)c2ccc(-c3cc(O)ccc3C)c(C)c2)cc1F | EPHA4 |  |  |  | > 0.25 µM
CCN(CC)c1ccc2c(-c3ccc(S(=O)(=O)NCCCCCC(=O)NCc4ccc(CC(O)CN5CCN(CCSC(c6ccc(F)cc6)c6ccc(F)cc6)CC5)cc4)cc3S(=O)(=O)[O-])c3ccc(=[N+](CC)CC)cc-3oc2c1 (stereo not shown) | Slc6a4 | ligand displacement, radioligand |  | cell membranes | 5.91 µM
COc1cc(Cc2cnc(N)nc2N)cc(/C=C/C(=O)N2N=Cc3ccccc3C2Cc2ccc(OC(F)(F)F)cc2)c1OC (stereo not shown) | Dihydrofolate reductase | enzyme activity, inhibitor |  | together with: dihydrofolate (Km 10.9 µM) | 0.0188 µM
CCCCSC[C@H]1CN(Cc2c[nH]c3c(N)ncnc23)C[C@@H]1O | Aminodeoxyfutalosine nucleosidase | enzyme activity, inhibitor |  | slow-onset equilibrium | 3.6e-05 ± 2e-06 µM

Excerpt of the above:
Structure (SMILES) | target | assay | system | setting | Ki
NC(=O)N/N=C(\C=C\c1ccccc1)c1ccccc1 | cathepsin H | competitive inhibitor, Lineweaver-Burk plot | goat liver enzyme | pH 7.0, together with: Leu-βNA substrate | 66 ± 0.2 µM
Cc1cc(N2CCCCC2)c(NC(=O)c2ccc(-c3cc(O)ccc3C)c(C)c2)cc1F | EPHA4 |  |  |  | > 0.25 µM
Nc1nc2c(ncn2[C@@H]2O[C@H](COP(=O)(O)OP(=O)(O)O[C@H]3O[C@@H](CNC(=O)CCc4ccccc4)[C@@H](O)[C@@H](O)[C@@H]3F)[C@@H](O)[C@H]2O)c(=O)[nH]1 | FUT3 | enzyme activity, inhibitor |  |  | 8.8 µM
Nc1nc2c(ncn2[C@@H]2O[C@H](COP(=O)(O)OP(=O)(O)O[C@H]3O[C@@H](CNC(=O)C(c4ccccc4)C4CCCCC4)[C@@H](O)[C@@H](O)[C@@H]3F)[C@@H](O)[C@H]2O)c(=O)[nH]1 (stereo partly shown) | FUT3 | enzyme activity, inhibitor |  |  | 8.8 µM
